Earlier results that unrelated publications cite.
Each numbered part shows a few of the values that one paper quotes. ± marks the error that the study gave.
UniProt P25084, sequence (whole entry, looked up): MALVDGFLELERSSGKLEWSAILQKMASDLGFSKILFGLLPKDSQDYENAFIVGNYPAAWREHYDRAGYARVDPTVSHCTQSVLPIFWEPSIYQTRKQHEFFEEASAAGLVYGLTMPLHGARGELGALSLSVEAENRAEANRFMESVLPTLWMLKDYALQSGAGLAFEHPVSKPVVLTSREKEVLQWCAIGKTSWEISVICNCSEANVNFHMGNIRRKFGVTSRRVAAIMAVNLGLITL
UniProt P9WPA5, sequence (whole entry, looked up): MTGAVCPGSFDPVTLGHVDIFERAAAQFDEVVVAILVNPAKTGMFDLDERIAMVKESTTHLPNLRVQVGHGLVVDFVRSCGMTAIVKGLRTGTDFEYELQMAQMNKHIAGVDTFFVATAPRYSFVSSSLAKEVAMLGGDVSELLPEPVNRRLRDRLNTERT
UniProt A2RJT9, sequence (whole entry, looked up): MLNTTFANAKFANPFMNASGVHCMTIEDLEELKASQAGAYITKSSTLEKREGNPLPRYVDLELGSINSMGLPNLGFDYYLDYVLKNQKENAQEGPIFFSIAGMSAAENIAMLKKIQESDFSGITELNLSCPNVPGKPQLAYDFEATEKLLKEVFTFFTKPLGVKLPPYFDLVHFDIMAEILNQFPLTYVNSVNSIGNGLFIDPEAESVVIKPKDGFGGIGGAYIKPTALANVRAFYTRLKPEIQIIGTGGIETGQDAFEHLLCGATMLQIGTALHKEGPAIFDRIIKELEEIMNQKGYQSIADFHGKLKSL
UniProt P30542, sequence (whole entry, looked up): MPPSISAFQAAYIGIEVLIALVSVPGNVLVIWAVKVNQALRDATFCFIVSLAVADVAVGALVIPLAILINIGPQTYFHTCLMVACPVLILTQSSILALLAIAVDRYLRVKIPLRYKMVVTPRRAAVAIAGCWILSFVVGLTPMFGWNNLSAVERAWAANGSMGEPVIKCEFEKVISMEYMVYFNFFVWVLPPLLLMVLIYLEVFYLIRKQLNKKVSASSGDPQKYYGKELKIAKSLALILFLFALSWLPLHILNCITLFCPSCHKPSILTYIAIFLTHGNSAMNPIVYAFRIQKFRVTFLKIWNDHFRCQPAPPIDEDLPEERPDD
UniProt Q01959, sequence (whole entry, looked up): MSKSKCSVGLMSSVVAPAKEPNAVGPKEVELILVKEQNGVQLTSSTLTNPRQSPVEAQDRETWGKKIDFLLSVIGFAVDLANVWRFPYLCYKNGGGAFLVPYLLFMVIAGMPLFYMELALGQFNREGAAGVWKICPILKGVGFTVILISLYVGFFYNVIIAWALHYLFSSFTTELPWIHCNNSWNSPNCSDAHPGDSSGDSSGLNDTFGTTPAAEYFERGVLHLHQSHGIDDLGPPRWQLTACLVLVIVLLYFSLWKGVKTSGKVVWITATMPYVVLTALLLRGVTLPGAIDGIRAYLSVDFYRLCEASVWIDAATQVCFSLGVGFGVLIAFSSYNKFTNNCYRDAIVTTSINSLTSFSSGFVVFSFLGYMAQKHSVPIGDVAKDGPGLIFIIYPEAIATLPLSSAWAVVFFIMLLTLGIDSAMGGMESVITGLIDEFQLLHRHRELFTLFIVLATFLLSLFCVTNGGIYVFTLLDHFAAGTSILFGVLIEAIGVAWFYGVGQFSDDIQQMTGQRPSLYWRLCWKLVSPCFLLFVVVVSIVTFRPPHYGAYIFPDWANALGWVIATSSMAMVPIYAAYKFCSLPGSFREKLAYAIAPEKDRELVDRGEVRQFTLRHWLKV

Block 1 — observed: peptide-MHC binding; molecule type: peptide
Target: HLA class I histocompatibility antigen, A alpha chain, allele A*25:01 (Homo sapiens, UniProt P04439)
| Sequence | IC50 [µM] |
| --- | --- |
| WLGWGHAWV | > 20 |
| GMHDGTVGK | > 20 |
| MVRVLTVIKEY | 1.29 |
| LEYFQFVKKLL | > 20 |
| SYMMDDLELI | > 20 |
| NMVADLWHA | > 20 |
| RRRPVTRPL | > 20 |
| QLFPELECF | > 20 |
| MELSLRAIQ | > 20 |
| VALFSSCPVAY | > 20 |
| TMGPHPAGV | > 20 |
| TFVPIAWAAAY | > 20 |
| EVIPYTPAM | 0.011 |
| MHGHGKHIL | > 20 |
| TTFPVNGGY | 0.212 |

Mixed results
Ar: Androgen receptor (Ar, Rattus norvegicus, UniProt P15207)
UniProt P15207, sequence (whole entry, looked up): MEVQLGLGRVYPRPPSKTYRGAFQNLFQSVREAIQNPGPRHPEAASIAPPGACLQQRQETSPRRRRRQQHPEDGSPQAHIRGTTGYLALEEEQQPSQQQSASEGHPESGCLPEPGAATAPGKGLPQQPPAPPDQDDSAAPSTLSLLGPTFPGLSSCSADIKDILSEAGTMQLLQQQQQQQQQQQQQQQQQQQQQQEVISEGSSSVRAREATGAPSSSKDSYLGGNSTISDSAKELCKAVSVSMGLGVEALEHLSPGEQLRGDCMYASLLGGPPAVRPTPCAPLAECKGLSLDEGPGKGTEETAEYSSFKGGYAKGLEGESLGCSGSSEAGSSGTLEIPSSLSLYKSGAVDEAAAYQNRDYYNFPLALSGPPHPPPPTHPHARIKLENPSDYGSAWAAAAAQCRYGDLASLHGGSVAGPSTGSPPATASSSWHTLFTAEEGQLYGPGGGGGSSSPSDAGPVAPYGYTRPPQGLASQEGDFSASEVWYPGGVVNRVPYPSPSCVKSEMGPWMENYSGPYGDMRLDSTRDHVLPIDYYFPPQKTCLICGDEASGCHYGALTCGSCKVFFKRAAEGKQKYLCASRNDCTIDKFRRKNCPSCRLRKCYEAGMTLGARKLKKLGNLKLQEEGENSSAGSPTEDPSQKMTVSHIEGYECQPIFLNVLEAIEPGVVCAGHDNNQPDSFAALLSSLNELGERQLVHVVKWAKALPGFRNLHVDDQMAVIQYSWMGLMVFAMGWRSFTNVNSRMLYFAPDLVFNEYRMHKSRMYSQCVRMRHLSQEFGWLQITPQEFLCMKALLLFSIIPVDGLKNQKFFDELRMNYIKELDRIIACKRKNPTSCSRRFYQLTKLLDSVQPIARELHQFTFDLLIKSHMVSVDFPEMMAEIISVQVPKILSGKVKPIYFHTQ
| SMILES | target or system | test | system | setting | quantity | result |
| --- | --- | --- | --- | --- | --- | --- |
| NC1CCCCC1N.O=C([O-])C(=O)[O-].[Pt+2] (stereo not drawn) | – | refers to: total platinum | mouse, plasma | intravenous, 8.34 mg Pt/kg | Vd | 0.167 L/kg |
| COc1ccc(C(=O)Nc2ccccc2CCC2CCCCN2C)cc1 (stereo not drawn) | – | – | human, plasma | dose not given, range of reported values | AUC | 0.36 to 0.965 µM·h |
| COc1ccc2[nH]c([S+]([O-])Cc3ncc(C)c(OC)c3C)nc2c1 (stereo not drawn) | – | – | human | – | CL | 1.3 to 2 L/h |
| CC(C)N(N=O)C(C)C | Salmonella typhimurium | – | TA100 | added: rat liver S9 | Ames mutagenicity | positive |
| O=C(O)c1cc(=O)[nH]c(=O)[nH]1 | Dihydroorotate dehydrogenase A (fumarate) (pyrDA, Lactococcus lactis subsp. cremoris, UniProt A2RJT9) | – | Lactococcus lactis, wild type | 25 °C | Kd | 13.1 ± 0.7 µM |
| C[C@H](Cc1ccccc1)Nc1ncnc2c1ncn2[C@@H]1O[C@H](CO)[C@@H](O)[C@H]1O | Adenosine receptor A1 (ADORA1, Homo sapiens, UniProt P30542) | – | – | – | Hill coefficient | 0.9 |
| O=C(O)c1ccccc1C(c1ccc(O)cc1)c1ccc(O)cc1 | Ar | validation reference set | – | concentration not given | AR binding call | inactive |
| CCCCCC(=O)CC(=O)N[C@H]1CCOC1=O | Transcriptional activator protein LasR (lasR, Pseudomonas aeruginosa, UniProt P25084) | reporter gene, cell-based | – | – | EC50 | 4.5 µM |
| Nc1ncnc2c1ncn2[C@@H]1O[C@H](COP(=O)(O)OP(=O)(O)OP(=O)(O)O)[C@@H](O)[C@H]1O | Phosphopantetheine adenylyltransferase (coaD, Mycobacterium tuberculosis, UniProt P9WPA5) | substrate | – | – | Km | 116 ± 5 µM |
| CN(CC(C)(C)C)N=O | – | – | male F344 rats | dose not given | oesophageal tumour incidence | 100% |
| Fc1ccc(C(OCCN2CCN(CCCc3ccccc3)CC2)c2ccc(F)cc2)cc1 | Sodium-dependent dopamine transporter (SLC6A3, Homo sapiens, UniProt Q01959) | – | – | – | Hill coefficient | 0.9 |
| CC(C)(C)NC(=O)[C@@H]1C[C@@H]2CCCC[C@@H]2CN1C[C@@H](O)[C@H](Cc1ccccc1)NC(=O)[C@H](CC(N)=O)NC(=O)c1ccc2ccccc2n1 | – | – | human, plasma | dose not given, range of reported values | AUC | 1.53 to 4.03 µM·h |
| CC(C)(C)CC(C)(C)c1ccc(O)cc1 | Ar | binding | – | concentration not given | activity class | active |
| CC(C(=O)O)c1ccc(-c2ccccc2)c(F)c1 (stereo not drawn) | – | – | human | – | CL | 0.12 to 0.15 L/h |
| COC(=O)[C@@H]1C[C@H](OC(C)=O)C(=O)[C@H]2[C@@]1(C)CC[C@H]1C(=O)O[C@H](c3ccoc3)C[C@]21C | kappa opioid receptor L212A | – | – | – | Ki | 0.0017 ± 0.001 µM |

Some of these lines once more (mixed results):
| SMILES | target or system | test | system | setting | quantity | result |
| --- | --- | --- | --- | --- | --- | --- |
| CCCCCC(=O)CC(=O)N[C@H]1CCOC1=O | Transcriptional activator protein LasR (lasR, Pseudomonas aeruginosa, UniProt P25084) | reporter gene, cell-based | – | – | EC50 | 4.5 µM |
| Nc1ncnc2c1ncn2[C@@H]1O[C@H](COP(=O)(O)OP(=O)(O)OP(=O)(O)O)[C@@H](O)[C@H]1O | Phosphopantetheine adenylyltransferase (coaD, Mycobacterium tuberculosis, UniProt P9WPA5) | substrate | – | – | Km | 116 ± 5 µM |
| CN(CC(C)(C)C)N=O | – | – | male F344 rats | dose not given | oesophageal tumour incidence | 100% |
| Fc1ccc(C(OCCN2CCN(CCCc3ccccc3)CC2)c2ccc(F)cc2)cc1 | Sodium-dependent dopamine transporter (SLC6A3, Homo sapiens, UniProt Q01959) | – | – | – | Hill coefficient | 0.9 |
| CC(C)(C)NC(=O)[C@@H]1C[C@@H]2CCCC[C@@H]2CN1C[C@@H](O)[C@H](Cc1ccccc1)NC(=O)[C@H](CC(N)=O)NC(=O)c1ccc2ccccc2n1 | – | – | human, plasma | dose not given, range of reported values | AUC | 1.53 to 4.03 µM·h |
